Results collected from several papers.
Lines come from different studies, so protocols differ. Numbers after ± are the reported error.
C1-hpah: p-hydroxyphenylacetate 3-hydroxylase, reductase component (C1-hpah, Acinetobacter baumannii, UniProt Q6Q271)
Proline--tRNA ligase: Proline--tRNA ligase (Plasmodium falciparum, UniProt Q8I5R7)
T1: RNA repeat, CUG repeat (Homo sapiens); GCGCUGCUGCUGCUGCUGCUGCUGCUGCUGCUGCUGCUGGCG
T2: DNA hairpin, hairpin, TTTT loop; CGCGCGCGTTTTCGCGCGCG

CC(=O)Nc1ccc(O)c(SC[C@H](NC(=O)CC[C@H](N)C(=O)O)C(=O)NCC(=O)O)c1
IC50 (ABCC4 (Homo sapiens, UniProt O15439); LTC4 transport, inhibitor; inside-out membrane vesicles; added: LTC4): > 300 µM

NC(=O)CN1C(=O)C(O)(CC(=O)c2cccc(N)c2)c2ccccc21 (stereo not drawn)
kcat (uncharacterized protein (Leishmania donovani, UniProt A0A3Q8IA09); glutamine hydrolysis, inhibitor; 100 µM, added: glutamine substrate): 438.3 ± 1.33 s⁻¹

CC[C@H](C)[C@H](NC(=O)CNC(C)=O)C(=O)N[C@@H](CCCNC(=N)N)C(=O)N[C@@H](CCC(=O)O)C(=O)N[C@@H](C)C(=O)N[C@H](C(=O)N[C@@H](CC(C)C)C(=O)N[C@@H](CCCNC(=N)N)C(=O)N[C@@H](C)C(=O)N[C@@H](Cc1c[nH]c2ccccc12)C(=O)N[C@@H](CCC(=O)O)C(=O)N[C@@H](CCCNC(=N)N)C(=O)N[C@@H](CCCNC(=N)N)C(=O)N[C@@H](Cc1ccc(O)cc1)C(=O)NCC(=O)N[C@@H](Cc1ccccc1)C(=O)N1CCC[C@H]1C(=O)N[C@@H](CCCNC(=N)N)C(=O)N1CCC[C@H]1C(=O)N[C@@H](CC(C)C)C(=O)N[C@@H](CCCNC(=N)N)C(=O)N[C@@H](CO)C(=O)N[C@@H](CCC(=O)O)C(N)=O)[C@@H](C)O
binding stoichiometry (Antirepressor protein CarS (carS, Myxococcus xanthus, UniProt Q06911); ITC; concentration not given, pH 7.5, 30 °C): 0.89 ± 0.01

O=C(O)CCc1ccc(O)cc1
-TΔS (C1-hpah; ITC; pH 7): 0.14 ± 0.04 kcal/mol

CC(C)C[C@H](NC(=O)[C@H](CC(N)=O)NC(=O)[C@H](CCCNC(=N)N)NC(=O)[C@@H](N)CS)C(=O)O
remaining activity (PPO3 (Agaricus bisporus, UniProt C7FF04); enzyme activity, inhibitor; 100 µM): 6.74%

Nc1nc(N)c2ncn([C@@H]3O[C@@H]4COP(=O)(O)O[C@H]5[C@@H](O)[C@H](n6cnc7c(N)nc(N)nc76)O[C@@H]5COP(=O)(O)O[C@H]4[C@H]3O)c2n1
binding (ydaO riboswitch, Bacillus subtilis, wild type; competition gel shift; up to 200 µM, added: c-di-AMP): no binding

CCOC(=O)[C@H](CCCNC(N)=O)NC(=O)[C@H](Cc1c[nH]c2ccccc12)NC(=O)[C@@H]1CCCCN1C(=O)[C@H](Cc1ccccc1)N(C)C(=O)CCl
concentration for maximal engagement (PIN1 (Homo sapiens, UniProt Q13526); PaTu 8988t; 5 h, added: BJP-DTB probe): 10 µM

CNc1ccccc1C(=O)O[C@H]1C[C@H](n2cnc3c(N)ncnc32)O[C@@H]1COP(=O)(O)OP(=O)(O)O
dissociation rate constant (Unconventional myosin-Va (Gallus gallus, UniProt Q02440, D297C/G292C/I296C/S293C/V295G); stopped-flow FRET; 25 °C, added: MgCl2 10 mM): 7.86 ± 0.03 s⁻¹

C#CCCN(CCCl)c1ccc(CCCC(=O)Nc2cccc(-c3cn4c(n3)C(C)CCC4)c2)cc1 (stereo not drawn)
binding (T1, RNA repeat, CUG repeat (Homo sapiens); TAMRA click labeling gel; 18 h, pH 7.4, 37 °C, covalent): binds weakly

CC1=C(/C=C/C(C)=C\C=C\C(C)=C\C=O)C(C)(C)CCC1
absorption maximum (Rhodopsin, apoprotein (opsin) (RHO, Bos taurus, UniProt P02699); pigment regenerated): 485 nm

CC[C@H](C)[C@H](NC(=O)[C@H](CCCCN)NC(=O)[C@H](CCCCN)NC(=O)[C@@H](NC(=O)[C@H](CCC(=O)O)NC(=O)[C@H](CCC(=O)O)NC(=O)[C@H](CCC(=O)O)NC(=O)[C@H](CO)NC(=O)[C@H](C)NC(=O)[C@H](CC(=O)O)NC(=O)[C@H](CC(C)C)NC(=O)CNC(=O)[C@H](CCCNC(=N)N)NC(=O)[C@H](CC(C)C)NC(=O)[C@H](CO)NC(=O)CNC(=O)CNC(=O)CNC(=O)CCCC[C@@H]1SC[C@@H]2NC(=O)N[C@@H]21)C(C)C)C(=O)N[C@@H](CC(C)C)C(=O)N[C@@H](CC(=O)O)C(=O)N[C@@H](CCC(=O)O)C(=O)N[C@H](C(=O)N[C@H](C(=O)N[C@@H](CCCCN)C(=O)N[C@@H](CC(=O)O)C(=O)O)C(C)C)[C@@H](C)CC
Kd ratio (Fab B11 antibody (human); binding, biolayer interferometry; relative to: alanine mutant over wild type): 9.1

CC(C)C[C@H](NC(=O)[C@H](CO)NC(=O)[C@H](CC(C)C)NC(=O)[C@@H]1CCCN1C(=O)OCC1c2ccccc2-c2ccccc21)C(=O)N[C@@H](CCCNC(=N)N)C(=O)N[C@@H](CO)C(=O)N[C@@H](CCCCN)C(=O)O
hydrolysis product (MMP9 (Homo sapiens, UniProt P14780); substrate, HPLC; 500 µM, 72 h, pH 7.5, 37 °C): 51%

Cc1cc(N2CCC(CO)(C3CC3)C2=O)cc(C(=O)NCc2cc(F)cc(-c3cnn(C)c3)c2)n1 (stereo not drawn)
melting temperature (Proline--tRNA ligase; thermal shift; added: L-proline and ATP 2 mM): 75.7 °C

CCC1(O)CCCN(C(=O)c2ccc(-c3ccccc3C(F)(F)F)cc2)C1 (stereo not drawn)
signal attenuation (DNA dC->dU-editing enzyme APOBEC-3B, C-terminal domain (Homo sapiens, UniProt Q9UH17); binding, 1H CPMG NMR; 20 µM protein): 95.8 ± 5.9%

CCc1nc2cc3ccccc3cc2cc1C(=O)N[C@@H](CCCCN)C(=O)N[C@@H](C/C=C/C[C@H](NC(=O)[C@H](CCCCN)NC(=O)c1cc2cc3ccccc3cc2nc1CC)C(=O)N1CCC[C@H]1C(=O)NCCCN)C(=O)N1CCC[C@H]1C(=O)NCCCN
residence time ((CAG)10 RNA; SPR): 173 s

[3H]C([3H])([3H])c1cnccc1CN1C[C@@H](c2cc(F)c(F)c(F)c2)CC1=O
total binding (SV2A (Homo sapiens, UniProt Q7L0J3); radioligand binding, autoradiography; human, post-mortem insula; 2 nM): 86 fmol/mg

COc1cc(F)c(C(C)C)cc1C1=C(CN2C(=O)O[C@H](c3cc(C(F)(F)F)cc(C(F)(F)F)c3)[C@@H]2C)CC(C)(C)CC1
time of maximum inhibition (Cholesteryl ester transfer protein (Homo sapiens, UniProt P11597); enzyme activity; healthy male subjects, plasma; oral, 200 mg single dose): 7 h

CN(C)CCC(=O)N(c1ccc(F)cc1)c1ccc(F)cc1
EC200 (Proteasome subunit alpha type-2/Proteasome subunit alpha type-6, 20S proteasome (Homo sapiens, UniProt P25787+P60900); proteolysis, activator, fluorogenic peptide; purified 20S proteasome; added: Suc-LLVY-AMC, Z-LLE-AMC, Boc-LRR-AMC): > 30 µM

Cc1cc(N2CC[C@@](C#N)(C3(C)CC3)C2=O)cc(C(=O)NCc2cc(F)cc(-c3cnn(C)c3)c2)n1
melting temperature (Proline--tRNA ligase; thermal shift; added: ATP 2 mM): 77.2 °C

CC(=O)Nc1ncc(CN2CC[C@H](Oc3cccc([18F])n3)C[C@@H]2C)s1
total distribution volume (VT) (Protein O-GlcNAcase (OGA, Homo sapiens, UniProt O60502); PET two-tissue compartment model; human, thalamus; dose not given): 10.7 mL/cm³

[Ru+2].[Ru+2].c1cnc2c(c1)c1nc(-c3ccc(OCCOCCOc4ccc(-c5nc6c7cccnc7c7ncccc7c6[nH]5)cc4)cc3)[nH]c1c1cccnc12.c1cnc2c(ccc3nccnc32)n1.c1cnc2c(ccc3nccnc32)n1.c1cnc2c(ccc3nccnc32)n1.c1cnc2c(ccc3nccnc32)n1
Kd (T2, DNA hairpin, hairpin, TTTT loop; BLI; pH 7.04, Na+ 100 mM): 0.37 µM

CC(C)CC(NC(=O)C(NC(=O)NC(C(=O)O)C(C)C)C1CCNC(=N)N1)C(=O)NCCCNC(C(=O)O)C(OC1OC(CN)C(O)C1O)C1OC(n2ccc(=O)[nH]c2=O)C(O)C1O (stereo not drawn)
ΔH (mraY (Aquifex aeolicus, UniProt O66465, F262W); ITC; F262W mutant): -10.4 ± 0.7 kcal/mol

CSCC[C@H](NC(=O)[C@H](CCCNC(=N)N)NC(=O)[C@H](CCSC)NC(=O)[C@H](CCC(N)=O)NC(=O)[C@H](CO)NC(=O)[C@@H](NC(=O)[C@@H]1CCCN1)C(C)C)C(=O)N[C@@H](C)C(=O)N[C@H](C(=O)N1CCC[C@H]1C(=O)N[C@@H](CC(C)C)C(=O)N[C@@H](CC(C)C)C(=O)N[C@@H](CC(=O)O)C(=O)N[C@@H](CCCNC(=N)N)C(=O)N1CCC[C@H]1C(=O)O)[C@@H](C)O
dissociation half-life (MHC class II I-A g7 (Mus musculus, UniProt P04228+Q31135); peptide-MHC complex stability, peptide dissociation; pH 5.0, loaded 1 µM, 18 h, 37 °C, added: 100 µM mouse serum albumin peptide): ~23 h

CC[C@H](C)[C@H](NC(=O)[C@H](Cc1ccccc1)NC(=O)[C@H](CCC(=O)O)NC(=O)[C@H](CCCCN)NC(=O)[C@H](C)NC(=O)[C@H](C)NC(=O)[C@H](CCC(N)=O)NC(=O)CNC(=O)[C@H](CCC(=O)O)NC(=O)[C@H](CC(C)C)NC(=O)[C@H](Cc1ccc(O)cc1)NC(=O)[C@H](CO)NC(=O)[C@H](CO)NC(=O)[C@@H](NC(=O)[C@H](CC(=O)O)NC(=O)[C@H](CO)NC(=O)[C@@H](NC(=O)[C@H](Cc1ccccc1)NC(=O)[C@@H](NC(=O)CNC(=O)[C@@H](N)CCC(=O)O)[C@@H](C)O)[C@@H](C)O)C(C)C)C(=O)N[C@@H](C)C(=O)N[C@@H](Cc1c[nH]c2ccccc12)C(=O)N[C@@H](CC(C)C)C(=O)N[C@H](C(=O)N[C@@H](CCCCN)C(=O)NCC(=O)N[C@@H](CCCNC(=N)N)C(N)=O)C(C)C
cAMP accumulation (Glucagon-like peptide 1 receptor (Rattus norvegicus, UniProt P32301); agonist; INS-1E; concentration not given, compound alone): inactive

CCCC[C@H](NC(=O)CNC(=O)CNC(=O)CN1CCN(CC(=O)O)CCN(CC(=O)O)CC1)C(=O)N[C@H]1CC(=O)NCCCC[C@@H](C(N)=O)NC(=O)[C@H](Cc2c[nH]c3ccccc23)NC(=O)[C@H](CCCNC(=N)N)NC(=O)[C@@H](Cc2ccccc2)NC(=O)[C@H](Cc2c[nH]cn2)NC1=O [gallium-67 labelled]
tumour uptake reduction (Mc1r (Mus musculus, UniProt Q01727); mouse B16-F1 tumour; dose not given, 2 h, added: NDP-MSH 6.07 nmol): ~90.8%

O=C(O)Cc1ccc(O)cc1
ΔH (C1-hpah; ITC; pH 7): -20.3 ± 1.11 kcal/mol

CC(=O)C12NC(C)(C)CC1(C)C(=O)C1=C2c2c(c3c4n2C(C)(C)CC2=C4C4(CC(C)(C)NC(C)(C4)C2=O)CC3(C)C)C(=O)C(C)(C)N1 (single isomer, unassigned; (+))
agonist activity (OPRK1 (Homo sapiens, UniProt P41145); agonist, cAMP; CHO; concentration not given): inactive

CSCC[C@H](NC(=O)[C@H](Cc1c[nH]c2ccccc12)NC(=O)CNC(=O)[C@H](Cc1ccc(O)cc1)NC(=O)[C@H](C)NC(=O)[C@H](CCC(=O)O)NC(=O)[C@H](CCC(=O)O)NC(=O)[C@H](CCC(=O)O)NC(=O)[C@H](CCC(=O)O)NC(=O)[C@H](CCC(=O)O)NC(=O)[C@@H](CCC(=O)O)NC(=O)CN1CCN(CC(=O)O)CCN(CC(=O)O)CCN(CC(=O)O)CC1)C(=O)N[C@@H](CC(=O)O)C(=O)N[C@@H](Cc1ccccc1)C(N)=O [gallium-68 labelled]
tumour uptake (BALB/c nude mice, AR-42J xenograft; intravenous, 0.25 µg, 370 kBq, 1 h): 4.4 ± 1.3 %ID/g

COc1ccc(-c2cc(C(=O)N[C@@H](Cc3ccccc3)C(=O)NC3CCCCC3)ccc2O)cc1
activity (TRPV1 (Homo sapiens, UniProt Q8NER1); 12.5 µM): inactive

CCCC[C@H](NC(C)=O)C(=O)N[C@@H](CO)C(=O)N[C@H](C(=O)N1CCC[C@H]1C(=O)N[C@]1(C)CCCCCCC=CCCC[C@@](C)(C(=O)N[C@@H](Cc2ccccc2)C(=O)N[C@@H](CCCCN)C(=O)N[C@@H](CCCNC(=N)N)C(=O)N[C@@H](CC(C)C)C(=O)N[C@@H](CCC(N)=O)C(N)=O)NC(=O)[C@H](CCCNC(=N)N)NC(=O)[C@H](CCCC)NC(=O)[C@H](CC(C)C)NC(=O)[C@H](CCCNC(=N)N)NC(=O)[C@H](CCCNC(=N)N)NC(=O)[C@H](CCCNC(=N)N)NC1=O)[C@@H](C)O
UBA1-ubiquitin thioester formation (UBA1 (Homo sapiens, UniProt P22314); inhibitor): no effect

A few entries again:
CCc1nc2cc3ccccc3cc2cc1C(=O)N[C@@H](CCCCN)C(=O)N[C@@H](C/C=C/C[C@H](NC(=O)[C@H](CCCCN)NC(=O)c1cc2cc3ccccc3cc2nc1CC)C(=O)N1CCC[C@H]1C(=O)NCCCN)C(=O)N1CCC[C@H]1C(=O)NCCCN
residence time ((CAG)10 RNA; SPR): 173 s

[3H]C([3H])([3H])c1cnccc1CN1C[C@@H](c2cc(F)c(F)c(F)c2)CC1=O
total binding (SV2A (Homo sapiens, UniProt Q7L0J3); radioligand binding, autoradiography; human, post-mortem insula; 2 nM): 86 fmol/mg
